Published values from different studies.
Each line is one published result; not all experiments were run side by side. Values joined by “and” are separate records of one study, mostly repeats; a detail may differ. ± marks the error that the study gave.

CC(Cc1ccc(O)c(O)c1)C(C)Cc1ccc(O)c(O)c1 (stereo not drawn)
DPPH radical scavenging (DPPH; methanol; concentration not given, 60 min): 87.35 ± 0.05%

C[C@H]1C[C@H]2CSC(N)=N[C@@]2(c2nc(NC(=O)c3ccc(OC(F)F)cn3)cs2)CO1
percent change from baseline (refers to: Aβ1-40; healthy adults, plasma; 40 mg single dose, 24 h post-dose; baseline: placebo): -66.6%

CC(C)NCC(O)c1ccc(O)c(O)c1 (stereo not drawn)
sarcomere length (ventricular cardiomyocytes, C57BL/6 mouse; dose not given, 0.76 s): 1.72 µm

Cc1n[nH]c2ccc(-c3cc(OC[C@@H](N)Cc4ccccc4)cnc3-c3ccoc3)cc12
log2 fold change (kinase binding, competitor, MIB/MS competition, refers to: CTK1; Candida albicans cell lysate; 100 nM; baseline: DMSO): -0.0626

Cn1cc(Nc2nccc(-c3ccc4c(c3)CN(C3COC3)CC[C@H]4NC(=O)c3cn(C(C)(C)C)nn3)n2)cn1
pathway activation z-score (refers to: folate polyglutamylation; splenic B cells, mice; 30 mg/kg, IgD-activated in vivo; baseline: vehicle, direction not given): -2.24

OC(CCN1CCCCC1)(c1ccccc1)C1CC2C=CC1C2 (stereo not drawn)
change in EEG Beta2-power Pz-O1 (resting-state EEG; healthy elderly humans; oral, 2 mg, eyes closed, LS mean; baseline: baseline): -6.3%

N#CC[C@H](C1CCCC1)n1cc(-c2ncnc3[nH]ccc23)cn1
IL6 level difference (mouse, oxazolone dermatitis, plasma; oral, 90 mg/kg, once daily, unit not given; baseline: vehicle): -14.6

Cn1cc(Nc2nc(N)nc(-c3cccc(-n4ccc5cc(C6CC6)cc(F)c5c4=O)c3CO)n2)cn1
inhibition (CD63 upregulation, anti-IgE-induced; human, multiple ascending dose, whole blood basophils ex vivo; 50 mg twice daily, day 14, 6 h): 77.6%

C=CCn1c(=O)c2cnc(Nc3ccc(N4CCN(C)CC4)cc3)nc2n1-c1ccc2c(n1)[C@@](O)(CC)CC2
tumour volume difference (MIA PaCa-2, BALB/c nude mice, xenograft; oral, 80 mg/kg once daily, day 21; baseline: vehicle): 502 ± 15.2 mm3

CN(C)C(=O)c1cc2cnc(Nc3ccc(N4CCNCC4)cn3)nc2n1C1CCCC1
GSEA enrichment score (RNA-seq GSEA, refers to: HALLMARK_GLYCOLYSIS; MB002 tumour; concentration not given, in vivo; baseline: vehicle, direction not given): 0.41

C[C@H](Oc1ccc(Br)cc1-c1ccon1)C(=O)O
difference from placebo (response latency; human, tibialis anterior muscle; 50 mg, 30 Hz+30 s): -0.199%

CC(C)(C)c1sc2ncnc(Oc3c(F)cccc3OC(F)(F)F)c2c1-c1ccc(Cl)cc1
antihyperalgesia (paw withdrawal latency; MrgprX1 mice, CCI model; oral, 10 mg/kg, 2 h, day 14 post-CCI, heat hyperalgesia): 98%

N#Cc1ccc2c(c1)[C@H]1CCCN(C(=O)c3ccc4[nH]cnc4c3)[C@H]1C2
fasting plasma glucose (T2DM patients with overweight or obesity, plasma; oral, 240 mg, day 15 (360 h), multiple dosing, mean): 137 mg/dL

Cc1coc([C@H]2C[C@H]3[C@@H](CF)SC(N)=N[C@@]3(c3ccc(F)cc3F)CO2)n1
brain Aβ40 level (refers to: Aβx-40; wild-type mouse, brain; subcutaneous, 80 mg/kg, 9 h): 2.72 ng/g

CC(C)[C@H](N)C(=O)O
log2 fold change (binding, MIDAS equilibrium dialysis LC-MS; A2AR-BRIL thermostabilized; concentration not given; baseline: no-protein control): 0.0325

CC[C@@H]1[C@H](F)C(=O)N[C@@H]1COc1nccc2cc(C(N)=O)c(OC)cc12
inhibition (ATP-site probe binding, ActivX profiling, refers to: MST4, YSK1; THP-1 cell lysate; 0.04 mM, Lys2 site): -3.8%

O[C@H]1CCCN[C@@H]1CCCn1cnc2c(Cl)c(Cl)ccc21
maximum reduction (ELISA, refers to: Pro-C6; healthy human volunteers, serum; 25 mg, day 1, multiple ascending dose): 9.05%

CSCCNc1nc(SCCC(F)(F)F)nc2c1ncn2[C@@H]1O[C@H](COP(=O)(O)OP(=O)(O)C(Cl)(Cl)P(=O)(O)O)[C@@H](O)[C@H]1O
patients with IPA above threshold (platelet aggregation, light transmittance aggregometry; human, platelet-rich plasma; dose not given, 4 to 6 h, IPA above 80 %, together with: ADP 20 µM; baseline: patients): 5.3%

CCC(C)C(=O)C(=O)O (stereo not drawn)
log2 fold change (binding, MIDAS equilibrium dialysis LC-MS; A2AR-BRIL thermostabilized; concentration not given; baseline: no-protein control): -0.459

COc1cc(O)c(CC=C(C)C)c(O)c1C(=O)/C=C/c1ccc(O)cc1
HOMA-IR (male Tac:SW conventional mice; in high-fat diet, dose not given; baseline: high-fat diet alone): decreased

N#Cc1ccc2c(-c3ccncc3)c(-c3ccc(F)cc3)nn2c1
log2 fold change (kinase binding, competitor, MIB/MS competition, refers to: NIK1; Candida albicans cell lysate; 10 µM; baseline: DMSO): -0.607

Nc1ccn([C@H]2C[C@H](O)[C@@H](CO)O2)c(=O)n1
log2 fold change (binding, MIDAS equilibrium dialysis LC-MS; A2AR-BRIL thermostabilized; concentration not given; baseline: no-protein control): -0.18

O=C1CCc2ccc(OCCCCN3CCN(c4cccc(Cl)c4Cl)CC3)cc2N1
hazard ratio (treatment discontinuation, Cox regression; human patients, CYP2D6 IM/PM/UM; dose not given, 6 months, genetic phenotype only; baseline: CYP2D6 normal metabolizers): 1.75

CO[C@H]1CC[C@H](N2C(=O)CNc3ncc(-c4ccc(C(C)(C)O)nc4)nc32)CC1
pAKT change from baseline (flow cytometry; stimulated monocytes, human, blood; 30 mg single dose, 24 h, mean; baseline: baseline): -35.3%

COc1ncc(-c2nc3c(n2C(C)C)[C@H](c2ccc(Cl)cc2)N(c2cc(Cl)cn(C)c2=O)C3=O)c(OC)n1
best overall response (International Working Group criteria; human acute myeloid leukemia patients; oral, 350 to 400 mg, response CRi, high-dose, other doses): 0%

N[C@@H](CC(=O)N1CCn2c(nnc2C(F)(F)F)C1)Cc1cc(F)c(F)cc1F
Ki-67+ proliferating cells (refers to: epithelial, immune, stromal cells; naive C57BL/6J mice; oral, 100 mg/kg twice daily, 2 d): no effect

O=C(O)C(=O)CO
log2 fold change (binding, MIDAS equilibrium dialysis LC-MS; A2AR-BRIL thermostabilized; concentration not given; baseline: no-protein control): -0.686

O=C(COc1ccc(Cl)cc1)NC12CC(c3nnc([C@H]4C[C@@H](OC(F)(F)F)C4)o3)(C1)C2
ATF4 protein change (healthy human, PBMC; oral, 15 mg single dose, day 2, 24 h post-dose, median, together with: sodium arsenite ex vivo; baseline: baseline): -4.56%

Cc1cc([C@H]2C[C@H]3[C@@H](CF)SC(N)=N[C@@]3(c3ccc(F)cc3F)CO2)on1
Aβ40 level (refers to: Aβx-40; Mus musculus wild-type, cerebrospinal fluid; subcutaneous, 100 mg/kg, 14 h): 1.28 ng/mL

FC(F)(F)Oc1cccc(-c2cnc3ccc(-c4ccncc4)nn23)c1
tumour bioluminescence (bioluminescence imaging; mouse, MDA-MB-231-Luc xenograft; 30 mg/kg, day 21): 5.63e+10 photons/s and 1.42e+11 photons/s and 6.15e+10 photons/s and 1.28e+10 photons/s and 2.21e+10 photons/s

NC(=O)NCCC(=O)O
log2 fold change (binding, MIDAS equilibrium dialysis LC-MS; A2AR-BRIL thermostabilized; concentration not given; baseline: no-protein control): -0.711

O=P(O)(O)C(Cl)(Cl)P(=O)(O)O
VCAM-1 level (endothelial activation, immunostaining; mouse, sham, cortical capillaries; dose not given): 6.24 MFI and 5.45 MFI

N#Cc1ccn2c(-c3ccncc3)c(-c3ccc(F)cc3)nc2c1
log2 fold change (kinase binding, competitor, MIB/MS competition, refers to: NPR1; Candida albicans cell lysate; 100 nM; baseline: DMSO): 0.00233

NC(=O)c1cnc2[nH]ccc2c1N[C@@H]1[C@@H]2CC3C[C@H]1C[C@@](O)(C3)C2
percent change (CD4+ effector memory T cells, flow cytometry; Japanese humans, peripheral blood; 200 mg single dose; baseline: baseline): -0.33%

c1ccc(-c2n[nH]cc2-c2ccnc3ccccc23)nc1
log2 fold change (kinase binding, competitor, MIB/MS competition, refers to: FPK1; Candida albicans cell lysate; 10 µM; baseline: DMSO): 1.72

CC1(C)CCC(CN2CCN(c3ccc(C(=O)NS(=O)(=O)c4ccc(NCC5CCOCC5)c([N+](=O)[O-])c4)c(Oc4cnc5[nH]ccc5c4)c3)CC2)=C(c2ccc(Cl)cc2)C1
EC50 (cell killing; primary canine neoplastic B cells, dog 28; 24 h): 2300 nM

O=C(O)[C@@H](O)[C@H](O)[C@H](O)CO
log2 fold change (binding, MIDAS equilibrium dialysis LC-MS; A2AR-BRIL thermostabilized; concentration not given; baseline: no-protein control): -0.223

COC[C@@H](c1ccc(C(F)(F)F)cc1)N1CCN(C2(C)CCN(C(=O)c3c(C)ncnc3C)CC2)C[C@@H]1C
change in HIV-1 RNA (HIV-1 infected patients, plasma; 15 mg, week 16, with optimized background regimen; baseline: baseline): -1.65 log10 copies/mL

O=C(O)c1cc(O)c2cccc(O)c2n1
log2 fold change (binding, MIDAS equilibrium dialysis LC-MS; A2AR-BRIL thermostabilized; concentration not given; baseline: no-protein control): 0.167

COc1cc(F)c([C@@H]2CNC(=O)[C@H]2NC(=O)Nc2ccccc2)c(F)c1
stroke volume (terminal haemodynamics; rat, permanent coronary occlusion MI; 1 mg/kg, 1008 h, 6 weeks post-MI): 120 ± 26 µL

CN(C)C(=O)Oc1cccc([N+](C)(C)C)c1
train-of-four ratio (neuromuscular block reversal; rat; dose not given, 22.5 (unit not given), together with: cisatracurium; baseline: T1 twitch): 99.5

COc1cc(Nc2ncc3c(n2)-c2ccc(Cl)cc2C(c2c(F)cccc2OC)=NC3)ccc1C(=O)O
median response score (female NOD/scid mice, ALL-19 B-precursor ALL xenograft; 10.4 mg/kg, 5 days weekly, score scale 0 to 10; direction not given): 8

O=C(O)COP(=O)(O)O
log2 fold change (binding, MIDAS equilibrium dialysis LC-MS; A2AR-BRIL thermostabilized; concentration not given; baseline: no-protein control): 0.0598

Cc1cc([C@H]2C[C@H]3[C@@H](C)SC(N)=N[C@@]3(c3ccc(F)cc3F)CO2)on1
brain Aβ40 level (refers to: Aβx-40; wild-type mouse, brain; subcutaneous, 50 mg/kg, 18 h): 2.43 ng/g

N#C/C(=C\c1ccccc1)c1ccncc1
β-elimination rate constant (pH 7.4): 0.152 min⁻¹

CCCCC1(CCCC)CN(c2ccccc2)c2cc(SC)c(OCC(=O)N[C@@H](C(=O)NCC(=O)O)c3ccccc3)cc2S(=O)(=O)C1
Asbt mRNA level (qPCR; male mice, ileum; 1 mg/kg, after mixed meal tolerance test; baseline: PBS): no effect

O=C(O)CNC(=O)Cc1ccccc1
sarcomere length (ventricular cardiomyocytes, C57BL/6 mouse; dose not given, 0.808 s): 1.68 µm

O=C1O[C@H]([C@@H](O)CO)C(O)=C1O
ferric reducing power (FRAP; 200 µM): 79.5%

Excerpt of the above:
O=C(COc1ccc(Cl)cc1)NC12CC(c3nnc([C@H]4C[C@@H](OC(F)(F)F)C4)o3)(C1)C2
ATF4 protein change (healthy human, PBMC; oral, 15 mg single dose, day 2, 24 h post-dose, median, together with: sodium arsenite ex vivo; baseline: baseline): -4.56%

Cc1cc([C@H]2C[C@H]3[C@@H](CF)SC(N)=N[C@@]3(c3ccc(F)cc3F)CO2)on1
Aβ40 level (refers to: Aβx-40; Mus musculus wild-type, cerebrospinal fluid; subcutaneous, 100 mg/kg, 14 h): 1.28 ng/mL

FC(F)(F)Oc1cccc(-c2cnc3ccc(-c4ccncc4)nn23)c1
tumour bioluminescence (bioluminescence imaging; mouse, MDA-MB-231-Luc xenograft; 30 mg/kg, day 21): 5.63e+10 photons/s and 1.42e+11 photons/s and 6.15e+10 photons/s and 1.28e+10 photons/s and 2.21e+10 photons/s

NC(=O)NCCC(=O)O
log2 fold change (binding, MIDAS equilibrium dialysis LC-MS; A2AR-BRIL thermostabilized; concentration not given; baseline: no-protein control): -0.711

O=P(O)(O)C(Cl)(Cl)P(=O)(O)O
VCAM-1 level (endothelial activation, immunostaining; mouse, sham, cortical capillaries; dose not given): 6.24 MFI and 5.45 MFI

N#Cc1ccn2c(-c3ccncc3)c(-c3ccc(F)cc3)nc2c1
log2 fold change (kinase binding, competitor, MIB/MS competition, refers to: NPR1; Candida albicans cell lysate; 100 nM; baseline: DMSO): 0.00233
